Results gathered from unrelated publications.
Numbered parts are unrelated; each lists some results of a single study. Substitutions count along the parent as printed.

Sample 1
Target: CCNE1, cyclin fold, Cln2 fusion (human)
Technique: yeast growth competition, sequencing
Medium: yeast
Notes: weak parent motif
Reference: not given
Reading: higher = stronger binding
Starting sequence: RB1 docking peptide (human); PKPLKKLRFDIEG
Variant	normalised enrichment score
K6M	0.0281
P3A	0.589
K5M	-0.574
E12N	0.0283
P1C	1.03
K2T	-0.284

Sample 2
Target: Sal-like protein 4, full length isoform B (SALL4, Homo sapiens, UniProt Q9UJQ4-2, residues 1-616)
Technique: universal PBM
Molecule type: double-stranded DNA, one strand shown
Medium: in vitro
Concentration: not given
Notes: 8-mer, flanks averaged, mean of replicates
Reading: higher = stronger binding
Target sequence (chain): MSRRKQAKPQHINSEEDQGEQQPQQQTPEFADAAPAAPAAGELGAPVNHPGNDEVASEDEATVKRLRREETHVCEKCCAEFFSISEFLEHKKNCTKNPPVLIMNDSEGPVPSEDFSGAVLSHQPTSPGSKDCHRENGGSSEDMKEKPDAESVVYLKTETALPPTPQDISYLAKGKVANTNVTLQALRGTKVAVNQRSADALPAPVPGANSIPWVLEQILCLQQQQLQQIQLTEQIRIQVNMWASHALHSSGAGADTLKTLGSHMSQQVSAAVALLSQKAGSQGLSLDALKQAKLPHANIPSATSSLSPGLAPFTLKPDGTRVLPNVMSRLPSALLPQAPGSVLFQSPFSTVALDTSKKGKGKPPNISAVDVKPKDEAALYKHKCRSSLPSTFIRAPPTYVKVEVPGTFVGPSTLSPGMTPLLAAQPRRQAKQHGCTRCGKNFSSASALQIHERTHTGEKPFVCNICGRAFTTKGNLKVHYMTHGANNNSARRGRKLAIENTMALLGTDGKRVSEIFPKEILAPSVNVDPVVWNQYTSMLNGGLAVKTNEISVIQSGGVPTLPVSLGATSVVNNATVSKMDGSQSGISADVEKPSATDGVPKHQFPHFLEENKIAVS
Sequence	E-score
GATTCTGC	-0.0576
ATAATCGG	0.176
ACTTAGAT	0.1
CCGCGAAG	-0.27
GGAGATCA	-0.15
ACCAAACC	-0.071
AGAATTAA	0.196
AGCGCACC	-0.132
AACGTTAA	0.161
CGGGATTC	-0.239

Sample 3
Target: Interferon regulatory factor 5, full length, phosphomimetic (IRF5, Homo sapiens, UniProt Q13568-2, residues 1-514, S451D/S453D/S456D/S462D)
Technique: protein-binding microarray
Molecule type: double-stranded DNA, one strand shown
Medium: in vitro
Concentration: 940 nM top
Notes: 60-bp whole probe
Together with: salmon DNA 0.4 mg/ml
Reference: random background probes
Reading: higher = stronger binding
All sequences stand within: GCCTAGCAC … GTCTTGATTCGCTTGACGCTGCTG
Sequence	fitted relative affinity [z-score]
TTAGGCCTGCTTATCCTTTAGTGCTAG	-0.0513
GACGGTCTCATTATCCTGACGTGCTAG	1.68
GGGTGAATGTGTCTTAAATAGTGCTAG	0.0948
CTACTTCTCTTTTTGCTTTCGTGCTAG	2.56
GACGATATCGTGTATCGAGACGTGCTA	0.158
TTAGAACTGGTGACTGGATTAGTGCTA	-0.628
AAGCAGTTACTCTAGAGGCCGTGCTAG	-0.65
TTAGGACTGAGTCTCGATTAGTGCTAG	2.36

Further values, each from its own experiment
Molecule	target	assay	test system	conditions	scale	endpoint	result
PhoQ, residues 284 288 289 292 302 303 TNSAEL	PhoP, residues 12 14 15 18 19 AWHSL (Escherichia coli, UniProt P23836)	Sort-seq, measured: YFP reporter	E. coli	PhoQ-PhoP variant library, together with: 10 µM Mg2+	reference: high Mg2+ state, higher = stronger signaling	fold induction	1.57

Some of these lines once more (sample 3):
Sequence	fitted relative affinity [z-score]
TTAGAACTGGTGACTGGATTAGTGCTA	-0.628
AAGCAGTTACTCTAGAGGCCGTGCTAG	-0.65
TTAGGACTGAGTCTCGATTAGTGCTAG	2.36
